Assay results from different studies.
Every numbered part comes from another study and shows a few of its results, in no order.

Series 1 — technique: RNA Bind-n-Seq; molecule type: RNA; medium: in vitro; tested at: not given; reference: input RNA pool; reading: higher = stronger binding
Target: RING finger protein unkempt homolog, zinc fingers 1-6, GST-SBP tag (UNK, Homo sapiens, UniProt Q9C0B0, residues 30-357)
Sequence of UniProt Q9C0B0 (30-357, looked up): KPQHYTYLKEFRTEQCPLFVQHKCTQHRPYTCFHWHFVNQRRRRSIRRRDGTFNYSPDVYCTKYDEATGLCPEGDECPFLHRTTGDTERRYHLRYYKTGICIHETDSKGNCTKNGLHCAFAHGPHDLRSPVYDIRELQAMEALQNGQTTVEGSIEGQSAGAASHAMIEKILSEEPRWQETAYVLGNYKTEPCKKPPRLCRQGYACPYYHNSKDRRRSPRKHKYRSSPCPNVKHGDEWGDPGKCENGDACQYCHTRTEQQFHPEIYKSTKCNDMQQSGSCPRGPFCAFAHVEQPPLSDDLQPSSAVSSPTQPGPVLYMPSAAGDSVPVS
Setting: RNA with constant flanks, human and mouse sites, ends assumed
Constant ends, left off below: GGGAGUUCUACAGUCCGACGAUC … CAACAGAGGAUUGAGCAUCA
`UACUUGGCAUAUCGAAAUUUUAUGAUUGACACAUACCGUCUAAACCCUCAAGAAUAUUUAACCAGCACUGCUUGCCGGCGAAACCUGACUGGAGAUGUGUGUGCUGUGAUGAGGGUUCAU` gave a bound/input enrichment of 0.269 ratio.
For `CUAAAAUCAUACAUUGAUAAAUACAUUUUGGAAAAUGCCAGUAUUAAAGUAUUAUUUUAUUACAGUUCAGUGGAAAAUGUUAACAAUUGCAUUUACUCUUGACUCAUAUUGUUAAAGCUC`, the bound/input enrichment was 0.265 ratio.
The bound/input enrichment of `AAUGUGGAACUAAGUUCGCUGGCCCGGCUUCCCAGCUUAAAUAAACUUCGAAAAUUGGAGCUUAGUGAUAAUAUAAUUUCUGGAGGCUUGGAAGUCCUGGCAGAGAAAUGUCCAAAUCUU` is reported as 1.96 ratio.
With `AUGCUUUCAGUAGCAGGAAUGGCAUUGUUUAAAAAGCUGAUGGCAGGGUAAGCAUUUGGGUUAGUGUUUUAUUAACAUAUUUGUAAGUACUUGUUCAUUGUGGAAAUGUGUCCUUGACUA` the bound/input enrichment was 0.236 ratio.
The bound/input enrichment of `GAUUUUAAUUGGCAGGGGAUAAUGGUAGCUUUCAAAUCAUUGGAAGGGGAAAAGGAUGUCUUAGGAUUAUUUUCUUUCUUGUAGUAGUUGAGACAGAGCUCUUAUUUACUGUAAUGCUAA` is reported as 0.419 ratio.
`CCAUGACCCGGUUAACACACGAGUAAACAGGCCUAGAGCUUGUCUGCUGUUUGACCUCUUUUAAGACCCGGCUGUGCUGCAUCUACAAAAUGAAGAUGACAGAGCUAGCCGAGGUCUUCA` gave a bound/input enrichment of 0.117 ratio.
For `CAUCCAAAGGGCCGUGAUAACAUUAUUGAUCUCUUCCUUUACCAACCACAGUAUCUUAAUGCAAUUCAGACAAUGUGUCCACAUAUUCUACGCUAUUUGACUACUGCCGUCAUAACCAAC`, the bound/input enrichment was 0.194 ratio.
The bound/input enrichment of `CAAGGAGCUCGAAGGAACAGUUCCUAGACGCAUCAGUUCCUACGUGAAAAGGAUUGUUUUGGUUUUUGUUUUGUUUUUUUGUUUGUUUUUUCACGUGAGAGCAAGACGGAGGAAAUAAUU` is reported as 0.171 ratio.
With `AUUGAAAAUAUGAUGAACUCUAUCUUUAAGGGUAUAUUUGUUCAUCGAUACCGUGAUGCAAUUGCUGAAAUUCGAGCCAUCUGUAUUGAAGAAAUUGGAGUGUGGAUGAAAAUGUAUAGC` the bound/input enrichment was 0.26 ratio.
With `AUGGAAGAUACCCUGAAGAGGAGGUUUUUCUAUGAUCAAGCUUUUGCUAUUUAUGGAGGUGUUAGUGGUCUGUAUGACUUUGGGCCAGUUGGCUGUGCUUUGAAGAACAAUAUUAUUCAG` the bound/input enrichment was 0.184 ratio.
For `UAGGCGUGAGGCUGUGGACUUUGCGGAAUGUUUCGGGGUUUUAUUUUGGUUUUUUGUUUUUCCUUUUUUUUUUUUUUUUUUAAACAAACAAACAAACCGGGCAAUAUUGUGUUCAGUUCA`, the bound/input enrichment was 3.38 ratio.

Series 2 — technique: RNA Bind-n-Seq; molecule type: RNA; medium: in vitro; tested at: 365 nM; reference: no-protein control; reading: higher = stronger binding
Target: RNA binding protein fox-1 homolog 2, RRM domain, GST-SBP tag (RBFOX2, Homo sapiens, UniProt O43251-10, residues 100-194)
Setting: natural RNA segment, single round, ends assumed
Constant ends, left off below: GGGAGUUCUACAGUCCGACGAUC … UGGAAUUCUCGGGUGCCAA
Target sequence (chain): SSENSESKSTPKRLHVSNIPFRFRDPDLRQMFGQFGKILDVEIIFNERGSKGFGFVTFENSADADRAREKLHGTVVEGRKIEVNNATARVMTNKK
`GAAAUUGUGGGGGGAAGGUAGGAGGCACAUCAAUAAAGAGGAAACCACCAAGCUGAACUGAAUUUUGCUUGUGUUGCUCCCCUCGUCCCGCUGAUUUUAAGUCUUUCCAA`: “RBNS enrichment (R)” 0.293.
`GACAUAGUGCAGACCUUGUAAAGCAAGAGUAGCUGGCAUCUCUUAAGUCACUGAUGCCAUUUCAUACAGGUGCUAGCUGUCUUUCUGUGGUUUGAAGGAAAGUUAUUGUC`: “RBNS enrichment (R)” 1.02.
Under “RBNS enrichment (R)”, `AAUGCUGUUCUUUAGUAGCAACUAAAAUGUGUCUUGCUGUCAUUUAUAUUCCUUUUCCCAGGAAAGAAGCAUUUCUGAUACUUUCUGUCAAAAAUCAAUAUGCAGAAUGG` is recorded as 0.232.
`ACUCCAGUCCUGCCACCACCCUGUCUUCCUCUGCAAGUGCUCAGGGAAAUGGCCUUCCCGCCGGAGGCCAGCUAUCUGCCUGACAGGCUGUGACUCUUCUCUCAACCUUG`: “RBNS enrichment (R)” 0.318.
For `CAAACUAAGCACUGUCACUUUCCUUUCUGAACCAUCUCAGCCAAAAAGGCCACCAUGAGGACAUCUCACCAACCUGUGCUCAGCAUGAACUGUGACAUCAGCCUUUGAUA`, “RBNS enrichment (R)” read 2.22.
Under “RBNS enrichment (R)”, `CAAAUGGUAGACUACUUGACCCCGUUCUCUAGCGUGAGUUUUCAUAGUGCCAUCUCCUCAUGAUUGUAGAAGCAGCUGAAUGAGUUUCUUCAGAUUUAAAAUGAAUAGCU` is recorded as 0.383.
`AUGUUAGGAUGGCCACGAAUGCUUGGUCAGAGUCCUUCCUUCCCUUGCUCAGCAGCGGACUUACUCCCAGCGCCUUCCCUCCCUCCUGUCCCUCCUGUCCCCUCACUGUC` — result for “RBNS enrichment (R)”: 3.41.
Under “RBNS enrichment (R)”, `UCAAAGGGAGAGAAAAGCUGGGCUUUUCCCUUGCUGUACCUCAUUCAGCUUUUGAUUUCCAUGGCCCCACCAUUUAUGUGCAAGAUUUGCAAUGGUUGUCAGCUUCCUCU` is recorded as 0.431.
`CCUCUCUGCUGCCGGUGAUGGGAGGCCUUUCUAGACCUGGCUCUUUCUCUCCCGUCUCAGUGGCUUCUCUGAGGUGCUGUACACGCGCGUUAACCUGUUCCCUUCUCUAU`: “RBNS enrichment (R)” 0.243.

Series 3 — technique: protein-binding microarray; molecule type: double-stranded DNA, one strand shown; medium: in vitro; tested at: 2200 nM top; setting: 60-bp whole probe; together with: salmon DNA 0.4 mg/ml; reference: random background probes; reading: higher = stronger binding; constant ends, left off below: GCCTAGCAC … GTCTTGATTCGCTTGACGCTGCTG
Target: Interferon regulatory factor 7, full length, phosphomimetic (IRF7, Homo sapiens, UniProt Q92985, residues 1-503, S471D/S472D/S475D/S476D/S477D/S483D/S484D/S487D)
Sequence of UniProt Q92985 (whole entry, unmodified, looked up): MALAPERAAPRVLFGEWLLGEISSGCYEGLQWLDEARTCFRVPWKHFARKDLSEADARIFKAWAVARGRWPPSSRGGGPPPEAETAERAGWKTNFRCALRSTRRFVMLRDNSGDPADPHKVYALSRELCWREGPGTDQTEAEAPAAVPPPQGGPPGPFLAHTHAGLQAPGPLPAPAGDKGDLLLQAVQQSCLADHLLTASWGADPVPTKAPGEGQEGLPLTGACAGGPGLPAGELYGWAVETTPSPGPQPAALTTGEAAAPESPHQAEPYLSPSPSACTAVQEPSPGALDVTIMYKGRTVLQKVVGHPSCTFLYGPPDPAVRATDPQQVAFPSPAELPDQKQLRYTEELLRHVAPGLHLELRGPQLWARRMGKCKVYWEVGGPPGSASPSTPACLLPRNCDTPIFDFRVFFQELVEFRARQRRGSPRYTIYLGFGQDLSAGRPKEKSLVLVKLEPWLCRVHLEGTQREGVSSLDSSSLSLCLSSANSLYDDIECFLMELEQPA
`TTAGGACTGCTACTACTTTAGTGCTAG`: “fitted relative affinity” 0.131 z-score.
Under “fitted relative affinity”, `TTAGATCTCAGTTTCGACTAGTGCTAG` is recorded as 3.05 z-score.
`GACGGTTTCCTTTCCCTGACGTGCTAG` — result for “fitted relative affinity”: 4.75 z-score.
For `TCATATATGTATATATGACTGTGCTAG`, “fitted relative affinity” read 0.917 z-score.
Under “fitted relative affinity”, `TTAGGTATGGGTTTCGGTTAGTGCTAG` is recorded as 4.09 z-score.
`TCATTCCTCTTTTTTGTACTGTGCTAG` — result for “fitted relative affinity”: 2.86 z-score.
For `TTAGAACTGGGGTAACGATTAGTGCTA`, “fitted relative affinity” read -0.447 z-score.
`TTAGGTATCGGTATCGATTAGTGCTAG`: “fitted relative affinity” 0.595 z-score.
Under “fitted relative affinity”, `TACGATATCAGTCTCGAGACGTGCTAG` is recorded as 0.576 z-score.
`TCAAGTCTGGGAGATGAAACTGTGCTA` — result for “fitted relative affinity”: -0.56 z-score.
`TTAGCACTGGGGACTGGATTAGTGCTA`: “fitted relative affinity” -0.497 z-score.
`TAAGGTATCGGACTGGGTTAGTGCTAG`: “fitted relative affinity” -0.0993 z-score.
`GACGTTCTCCTACTGCTGACGTGCTAG`: “fitted relative affinity” 1.42 z-score.
For `TTAGGTGTCGGGACTGGGTTAGTGCTA`, “fitted relative affinity” read -0.841 z-score.
`TTTGGTTTCGACACTGGGTTAGTGCTA`: “fitted relative affinity” 4.01 z-score.
`GTAGGTATCGGGACTGGGTTAGTGCTA` — result for “fitted relative affinity”: -0.272 z-score.
For `TCATTTTGGTCTTTCTGACTGTGCTAG`, “fitted relative affinity” read 2.45 z-score.
`CTTGCTACACATCTCACTCTGTGCTAG` — result for “fitted relative affinity”: 1.44 z-score.
For `GCGATCCTCTCACCTCAGCCTGTGCTA`, “fitted relative affinity” read 1.4 z-score.
Under “fitted relative affinity”, `TTAGATATTAGACTGGATTAGTGCTAG` is recorded as -0.442 z-score.
`TTAGAACTGAGGACTGGATTAGTGCTA` — result for “fitted relative affinity”: -0.936 z-score.
`GACGGACTGCTTCTCCAGACGTGCTAG` — result for “fitted relative affinity”: 0.172 z-score.
Under “fitted relative affinity”, `CTAGGTTTCGGTTCCGGTTAGTGCTAG` is recorded as 11.8 z-score.
`TCAGATTTCTCAAACAGACTGTGCTAG` — result for “fitted relative affinity”: 0.306 z-score.
For `TTAGTTTTCGGTTTCGGTTAGTGCTAG`, “fitted relative affinity” read 17.2 z-score.

Series 4 — technique: aptamer microarray, sandwich; molecule type: DNA with 2'F-ANA; medium: in vitro; tested at: 200 nM; together with: Cy3 exosite-II aptamer, 400 nM; reading: higher = stronger binding; strand: GGTTGGTGTGGTTGG
Target: Prothrombin, mature alpha-thrombin (F2, Homo sapiens, UniProt P00734)
Setting: whole 15-mer aptamer, many near background
`2'F-ANA at 2 5 7 8 10 11 12 13 14 15` — result for “mean fluorescence intensity”: 54.3 a.u.
Under “mean fluorescence intensity”, `2'F-ANA at 1 5 6 7 8 11 14 15` is recorded as 77.5 a.u.
For `2'F-ANA at 3 4 5 9 10 11 12 13 14`, “mean fluorescence intensity” read 56.4 a.u.
`2'F-ANA at 1 2 5 6 7 8 9 10 12 13 14`: “mean fluorescence intensity” 84.4 a.u.
For `2'F-ANA at 1 3 5 6 8 9 10 14`, “mean fluorescence intensity” read 47.1 a.u.
`2'F-ANA at 3 4 5 6 7 8 9 10 12`: “mean fluorescence intensity” 87.5 a.u.
`2'F-ANA at 1 2 5 7 8 12 13 15` — result for “mean fluorescence intensity”: 80.2 a.u.
`2'F-ANA at 1 3 4 7 9 10 13 14` — result for “mean fluorescence intensity”: 56.4 a.u.
Under “mean fluorescence intensity”, `2'F-ANA at 1 2 3 6 9 10 12 13 14 15` is recorded as 55.9 a.u.
`2'F-ANA at 2 7 8 15`: “mean fluorescence intensity” 560 a.u.
Under “mean fluorescence intensity”, `2'F-ANA at 1 5 6 7 8 12` is recorded as 129 a.u.
For `2'F-ANA at 2 4 6 8 9 10 11 13 14`, “mean fluorescence intensity” read 65.8 a.u.
For `2'F-ANA at 1 2 3 4 5 6 9 10 12`, “mean fluorescence intensity” read 53.9 a.u.
`2'F-ANA at 4 7 8 9 11`: “mean fluorescence intensity” 298 a.u.
`2'F-ANA at 1 2 3 4 5 6 7 8 10 11 12`: “mean fluorescence intensity” 55.4 a.u.
Under “mean fluorescence intensity”, `2'F-ANA at 4 5 6 7 9 15` is recorded as 82.1 a.u.
For `2'F-ANA at 1 4 6 7 8 9 11 13`, “mean fluorescence intensity” read 98.2 a.u.
`2'F-ANA at 1 2 3 5 10 12` — result for “mean fluorescence intensity”: 45.4 a.u.
`2'F-ANA at 1 2 3 4 7 9 10 11 13`: “mean fluorescence intensity” 51.2 a.u.
For `2'F-ANA at 1 4 5 6 9 10 13 14`, “mean fluorescence intensity” read 69.3 a.u.
For `2'F-ANA at 1 7 8 10`, “mean fluorescence intensity” read 57.1 a.u.
Under “mean fluorescence intensity”, `2'F-ANA at 3 4 6 7 8 11 12 13 14` is recorded as 295 a.u.
`2'F-ANA at 2 6 7 9 12 14 15` — result for “mean fluorescence intensity”: 155 a.u.
`2'F-ANA at 2 3 4 5 7 9 10 12 13` — result for “mean fluorescence intensity”: 51 a.u.
For `2'F-ANA at 3 4 5 6 7 8 12 13 14`, “mean fluorescence intensity” read 77.8 a.u.

Some of these lines once more (series 4):
`2'F-ANA at 1 2 3 4 5 6 7 8 10 11 12`: “mean fluorescence intensity” 55.4 a.u.
Under “mean fluorescence intensity”, `2'F-ANA at 3 4 6 7 8 11 12 13 14` is recorded as 295 a.u.
`2'F-ANA at 4 7 8 9 11`: “mean fluorescence intensity” 298 a.u.
`2'F-ANA at 1 2 5 6 7 8 9 10 12 13 14`: “mean fluorescence intensity” 84.4 a.u.
